Experimental data of several laboratories.
± marks the error that the study gave.
Target: Pancreatic alpha-amylase (AMY2, Sus scrofa, UniProt P00690)
Effect on: enzyme activity
Action: inhibitor
Residues used in one study (P00690 16-511): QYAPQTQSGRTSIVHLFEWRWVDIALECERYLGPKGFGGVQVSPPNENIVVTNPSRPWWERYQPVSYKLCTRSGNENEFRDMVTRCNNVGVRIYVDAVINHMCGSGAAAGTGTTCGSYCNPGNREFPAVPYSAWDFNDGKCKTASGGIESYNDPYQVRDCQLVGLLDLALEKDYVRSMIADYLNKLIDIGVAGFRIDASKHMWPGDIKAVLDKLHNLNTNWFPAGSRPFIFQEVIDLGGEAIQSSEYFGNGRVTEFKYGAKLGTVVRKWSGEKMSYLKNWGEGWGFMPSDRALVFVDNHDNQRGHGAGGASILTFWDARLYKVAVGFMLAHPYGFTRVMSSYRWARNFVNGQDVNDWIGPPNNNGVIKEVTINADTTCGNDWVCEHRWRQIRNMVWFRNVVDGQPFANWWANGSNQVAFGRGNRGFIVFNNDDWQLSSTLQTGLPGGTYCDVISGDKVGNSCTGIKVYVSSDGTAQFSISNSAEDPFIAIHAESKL

Structure (SMILES) | technique | pH | endpoint | value
COc1cc([C@H]2OC[C@]3(OC(C)=O)[C@@H](c4ccc(O)c(OC)c4)OC[C@H]23)ccc1O |  |  | IC50 | 13.9 µM
Cc1cccc(/C=C/C(=O)c2cnn(-c3ccccc3)c2C)c1 | absorbance |  | IC50 | 502 µM
Cc1cc(O)c(C=O)c2c1C(=O)Oc1c(CO)c(O)c3c(c1O2)C(O)OC3=O (centres unmarked) |  |  | IC50 | 0.114 ± 0.00612 µM
COc1cc([C@H]2OCC3C2CO[C@@H]3c2ccc(O)c(OC)c2)ccc1O (single isomer, unassigned; (+)) |  |  | IC50 | > 500 µM
CC(=O)C1=C(C)NC(=O)NC1c1cccc(Cl)c1 (centres unmarked) |  |  | IC50 | 50.5 µM
C=C[C@]1(C)CC[C@H]2C(=C[C@H]3OC(=O)[C@@]4(C)C(=O)CC[C@@]2(C)[C@@H]34)C1 |  |  | IC50 | 422 µM
C=C1CC[C@@H]2C(C)(C)[C@H](O)CC[C@@]2(C)[C@@H]1COc1ccc2ccc(=O)oc2c1 | absorbance | pH 6 | IC50 | 22.1 µM
Cc1ccc(N(O)/N=N/c2ccc(S(=O)(=O)Nc3nccs3)cc2)cc1 |  |  | IC50 | 839 µM
CC(=O)C1=C(C)NC(=O)NC1c1cccc(C)c1 (centres unmarked) |  |  | IC50 | 67 µM
O=C(CN1C(C(=O)c2ccccc2)=C(O)c2ccccc2S1(=O)=O)Nc1ccccc1Br |  |  | Ki | 287 µM
CC(=O)C1=C(C)NC(=O)NC1c1ccc(F)cc1 (centres unmarked) |  |  | IC50 | 40.5 µM
COC(CO)c1ccc(O)c(O)c1 (centres unmarked) |  |  | IC50 | > 500 µM
C=CC1(C)CCC2C(=CC3OC(=O)C4(C)C3C23CCC4(O)OC3)C1 (centres unmarked) |  |  | IC50 | 390 µM
CC(=O)C1=C(C)NC(=O)NC1c1ccc(Cl)cc1 (centres unmarked) |  |  | IC50 | 38.6 µM

A few entries again:
Structure (SMILES) | technique | pH | endpoint | value
Cc1ccc(N(O)/N=N/c2ccc(S(=O)(=O)Nc3nccs3)cc2)cc1 |  |  | IC50 | 839 µM
